Assay results collected from several papers.
Every numbered part comes from another study and shows a few of its results, in no order.

Block 1 — method: competition protein-binding microarray; molecule type: double-stranded DNA, one strand shown; medium: in vitro; concentration: 2 µM; together with: Pho4 competitor, 0.05 µM; reading: higher = stronger binding
Target: Centromere-binding protein 1, full length, His-tagged (CBF1, Saccharomyces cerevisiae, UniProt P17106, residues 1-351)
Sequence of UniProt P17106 (whole entry, looked up): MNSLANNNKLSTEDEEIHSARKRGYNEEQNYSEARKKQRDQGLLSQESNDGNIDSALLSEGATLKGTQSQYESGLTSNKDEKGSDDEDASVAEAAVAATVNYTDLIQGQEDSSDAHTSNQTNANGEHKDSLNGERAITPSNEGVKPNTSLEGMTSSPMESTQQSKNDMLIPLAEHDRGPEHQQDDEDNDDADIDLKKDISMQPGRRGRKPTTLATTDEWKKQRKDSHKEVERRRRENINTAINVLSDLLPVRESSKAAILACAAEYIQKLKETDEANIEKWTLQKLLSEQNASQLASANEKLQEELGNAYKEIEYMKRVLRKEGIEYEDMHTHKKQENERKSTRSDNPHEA
Setting: whole 60-bp probe, lowest competitor level
| Oligonucleotide | fluorescence intensity [a.u.] |
| --- | --- |
| CGTTGTCTGAGCAGGAATAAAGAGTTAAGAATATAGGTCTTGATTCGCTTGACGCTGCTG | 85.9 |
| AAATTACTAAGTTTTCACGTGGAGTACCCCGTATGAGTCTTGATTCGCTTGACGCTGCTG | 559 |
| ATTTTCGAGGGTTACGTCGTGACTCGTATGCTTTCTGTCTTGATTCGCTTGACGCTGCTG | 158 |

Block 2 — method: universal PBM; molecule type: double-stranded DNA, one strand shown; medium: in vitro; concentration: not given; reading: higher = stronger binding
Target: Sal-like protein 4, full length isoform B (SALL4, Homo sapiens, UniProt Q9UJQ4-2, residues 1-616)
Setting: 8-mer, flanks averaged, mean of replicates
| Oligonucleotide | E-score |
| --- | --- |
| CCATTGTC | 0.0316 |
| CCCTTGCG | -0.288 |
| GGAAACGA | 0.0449 |

Single results of other studies
| Substance | target | assay | test system | conditions | how to read | quantity | value |
| --- | --- | --- | --- | --- | --- | --- | --- |
| GCCTAGCACTCACCTCTGTCATTTTCACTGTGCTAGGTCTTGATTCGCTTGACGCTGCTG | Interferon regulatory factor 5, full length, phosphomimetic (IRF5, Homo sapiens, UniProt Q13568-2, residues 1-514, S451D/S453D/S456D/S462D) | protein-binding microarray | double-stranded DNA, one strand shown, in vitro | 940 nM top, 60-bp whole probe, together with: salmon DNA 0.4 mg/ml | baseline: random background probes, higher = stronger binding | fitted relative affinity | 1.42 z-score |
| PhoQ, residues 284 288 289 292 302 303 SNSSNI | PhoP, residues 12 14 15 18 19 NNFVT (Escherichia coli, UniProt P23836) | Sort-seq, item: YFP reporter | E. coli | PhoQ-PhoP variant library, together with: 10 µM Mg2+ | baseline: high Mg2+ state, higher = stronger signaling | fold induction | 1.56 |
| GCCTAGCACCTGATCCTTCATTTGAAAGAGTGCTAGGTCTTGATTCGCTTGACGCTGCTG | Interferon regulatory factor 5, full length, phosphomimetic (IRF5, Homo sapiens, UniProt Q13568-2, residues 1-514, K96S/S451D/S453D/S456D/S462D) | protein-binding microarray | double-stranded DNA, one strand shown, in vitro | 250 nM, 60-bp whole probe, together with: salmon DNA 0.4 mg/ml | baseline: random background probes, higher = stronger binding | log fluorescence | 0.196 z-score |

For quick reference, copied from above (block 2):
| Oligonucleotide | E-score |
| --- | --- |
| CCCTTGCG | -0.288 |
